Published values of several laboratories.
Organism: Staphylococcus aureus

Substance | effect on | method | strain | medium | time | temperature | MIC
CC[C@H](C)[C@H](NC(=O)CN)C(=O)N[C@@H](Cc1c[nH]c2ccccc12)C(=O)N[C@@H](CC(=O)O)C(=O)N[C@H](C(=O)N[C@H](C(=O)N[C@@H](CCCCN)C(=O)N[C@@H](CO)C(=O)N[C@@H](CCSC)C(=O)NCC(=O)N[C@@H](CCCCN)C(=O)N[C@H](C(=O)N[C@@H](Cc1ccccc1)C(=O)N[C@@H](C)C(=O)NCC(=O)N[C@@H](CCCCN)C(=O)N[C@H](C(=O)N[C@@H](CC(C)C)C(=O)N[C@@H](CCC(N)=O)C(=O)N[C@@H](CC(N)=O)C(=O)N[C@@H](CC(C)C)C(N)=O)[C@@H](C)CC)C(C)C)[C@@H](C)CC)[C@@H](C)O | – | broth microdilution | USA300 LAC | – | – | 37 °C | 25 µM
CC[C@H](C)[C@H](NC(=O)[C@H](CC(=O)O)NC(=O)[C@H](Cc1ccccc1)NC(=O)[C@H](CC(C)C)NC(=O)CN)C(=O)N[C@H](C(=O)N[C@@H](CCCCN)C(=O)N[C@@H](CCCCN)C(=O)N[C@H](C(=O)N[C@H](C(=O)N[C@@H](CCCCN)C(=O)N[C@@H](CC(C)C)C(=O)N[C@@H](CC(C)C)C(=O)N[C@@H](CCCCN)C(N)=O)C(C)C)C(C)C)C(C)C | – | – | SH1000 GFP-expressing | nutrient broth | 20 h | 37 °C | 50 µM
CC[C@H](C)[C@H](NC(=O)[C@H](CO)NC(=O)[C@@H](NC(=O)[C@H](C)NC(=O)[C@H](CCC(N)=O)NC(=O)CNC(=O)[C@@H](NC(=O)[C@@H](NC(=O)CNC(=O)[C@@H](NC(=O)[C@H](C)NC(=O)[C@@H]1CCCN1C(=O)CNC(=O)[C@H](C)NC(=O)[C@H](CCCCN)NC(=O)[C@@H](NC(=O)[C@@H](NC(=O)CNC(=O)[C@H](CC(=O)O)NC(=O)[C@H](CCCNC(=N)N)NC(=O)[C@@H](NC(=O)[C@H](CCCCN)NC(=O)[C@H](CCCNC(=N)N)NC(=O)CNC(=O)[C@@H](NC(=O)[C@H](CCCCN)NC(=O)[C@H](CCC(=O)O)NC(=O)[C@@H](NC(=O)[C@H](CCCCN)NC(=O)[C@H](CCCCN)NC(=O)[C@H](CC(C)C)NC(=O)[C@H](Cc1ccccc1)NC(=O)[C@H](CCCCN)NC(=O)[C@H](Cc1c[nH]c2ccccc12)NC(=O)[C@@H](N)CCCNC(=N)N)[C@@H](C)CC)C(C)C)C(C)C)C(C)C)[C@@H](C)CC)C(C)C)C(C)C)C(C)C)[C@@H](C)O)C(=O)N[C@@H](Cc1ccc(O)cc1)C(=O)N[C@@H](CCCCN)C(N)=O | – | broth microdilution | ATCC 29213 | – | 20 h | 37 °C | > 100 µg/mL
CC[C@H](C)[C@H](NC(=O)[C@H](CC(=O)O)NC(=O)[C@H](Cc1ccccc1)NC(=O)[C@H](CC(C)C)NC(=O)CN)C(=O)N[C@H](C(=O)N[C@@H](CCCCN)C(=O)N[C@@H](CCCCN)C(=O)N[C@H](C(=O)N[C@H](C(=O)NCC(=O)N[C@@H](C)C(=O)N[C@@H](CC(C)C)C(=O)NCC(N)=O)C(C)C)C(C)C)C(C)C | – | – | SH1000 GFP-expressing | nutrient broth | 20 h | 37 °C | 50 µM
CC[C@H](C)[C@H](NC(=O)[C@H](CCCNC(=N)N)NC(=O)[C@@H]1CCCN1C(=O)[C@@H]1CCCN1C(=O)[C@H](CC(C)C)NC(=O)[C@H](CCCNC(=N)N)NC(=O)[C@@H]1CCCN1C(=O)[C@@H]1CCCN1C(=O)[C@H](Cc1ccccc1)NC(=O)[C@H](Cc1ccccc1)NC(=O)[C@@H]1CCCN1C(=O)[C@@H]1CCCN1C(=O)[C@@H]1CCCN1C(=O)[C@H](CCCNC(=N)N)NC(=O)[C@@H]1CCCN1C(=O)[C@H](CCCNC(=N)N)NC(=O)[C@@H]1CCCN1C(=O)[C@H](CC(C)C)NC(=O)[C@H](Cc1ccc(O)cc1)NC(=O)[C@@H]1CCCN1C(=O)[C@@H]1CCCN1C(=O)[C@H](CCCNC(=N)N)NC(=O)[C@@H]1CCCN1C(=O)[C@H](CCCNC(=N)N)NC(=O)[C@H](CCCNC(=N)N)NC(=O)[C@@H](N)CCCNC(=N)N)C(=O)N1CCC[C@H]1C(=O)N1CCC[C@H]1C(=O)NCC(=O)N[C@@H](Cc1ccccc1)C(=O)N1CCC[C@H]1C(=O)N1CCC[C@H]1C(=O)N[C@@H](CCCNC(=N)N)C(=O)N[C@@H](Cc1ccccc1)C(=O)N1CCC[C@H]1C(=O)N1CCC[C@H]1C(=O)N[C@@H](CCCNC(=N)N)C(=O)N[C@@H](Cc1ccccc1)C(=O)N1CCC[C@H]1C(N)=O | – | broth microdilution | USA300 JE2 wild type | – | 18 to 20 h | – | 4 µg/mL
CC[C@H](C)[C@H](NC(=O)CNC(=O)[C@H](CCCNC(=N)N)NC(=O)[C@H](Cc1ccccc1)NC(=O)[C@@H](NC(=O)[C@H](Cc1c[nH]cn1)NC(=O)[C@H](Cc1c[nH]cn1)NC(=O)[C@H](Cc1ccccc1)NC(=O)[C@@H](N)Cc1ccccc1)[C@@H](C)CC)C(=O)N[C@H](C(=O)N[C@@H](Cc1c[nH]cn1)C(=O)N[C@H](C(=O)NCC(=O)N[C@@H](CCCCN)C(=O)N[C@H](C(=O)N[C@H](C(=O)N[C@@H](Cc1c[nH]cn1)C(=O)N[C@@H](CCCNC(=N)N)C(=O)N[C@@H](CC(C)C)C(=O)N[C@H](C(=O)N[C@H](C(=O)NCC(N)=O)[C@@H](C)O)C(C)C)[C@@H](C)CC)[C@@H](C)O)C(C)C)C(C)C | – | broth microdilution | ATCC 25923 | – | 18 h | 37 °C | 3.1 µg/mL
PACAP(6-38) | – | – | ATCC 25923 | – | – | – | 1.81 µM
CCCCCCCC1CC(=O)c2c(O)cc(O)cc2O1 (stereo not shown) | – | broth microdilution | MRSA NRS70 | – | – | – | 3.13 to 6.25 µg/mL
CC[C@H](C)[C@H](NC(=O)[C@H](CO)NC(=O)[C@H](CC(C)C)NC(=O)[C@H](Cc1ccccc1)NC(=O)CN)C(=O)N[C@@H](CC(C)C)C(=O)N[C@@H](CCCCN)C(=O)N[C@@H](CCCCN)C(=O)N[C@H](C(=O)N[C@@H](CC(C)C)C(=O)N1CCC[C@H]1C(=O)N[C@@H](CCCCN)C(=O)N[C@H](C(=O)N[C@@H](CCSC)C(=O)N[C@@H](C)C(=O)N[C@@H](Cc1c[nH]cn1)C(=O)N[C@@H](CCSC)C(=O)N[C@@H](CCCCN)C(N)=O)C(C)C)C(C)C | – | broth microdilution | USA300 LAC | – | – | 37 °C | 12.5 to 25 µM
CC(=O)C1=C(O)C(CC(C)C)NC1=O (stereo not shown) | microbial growth | broth dilution | MSSA NEWMAN | – | – | – | > 200 µg/mL
CC[C@H](C)[C@H](NC(=O)[C@H](CC(=O)O)NC(=O)[C@H](CC(C)C)NC(=O)[C@H](CC(C)C)NC(=O)[C@@H](N)CCCCN)C(=O)N[C@H](C(=O)N[C@@H](CCCCN)C(=O)N[C@@H](CCCCN)C(=O)N[C@H](C(=O)N[C@H](C(=O)NCC(=O)N[C@@H](C)C(=O)N[C@@H](CC(C)C)C(=O)NCC(N)=O)C(C)C)C(C)C)C(C)C | – | – | SH1000 GFP-expressing | nutrient broth | 20 h | 37 °C | > 100 µM
N=C(N)NCCC[C@H](NC(=O)[C@H](Cc1c[nH]cn1)NC(=O)[C@@H]1CCCN1C(=O)[C@H](CS)NC(=O)CN)C(=O)N[C@@H](CS)C(=O)O | – | broth microdilution | MTCC 96 | – | – | 37 °C | 200 µg/mL
CC(C)(C)c1cccc(C(C)(C)C)c1Oc1ccc([N+](=O)[O-])cc1[N+](=O)[O-] | microbial growth | – | ATCC25923 | – | – | – | > 500 µg/mL
CC[C@H](C)[C@H](NC(=O)[C@@H]1CCCN1C(=O)[C@H](Cc1c[nH]cn1)NC(=O)[C@H](CCCCN)NC(=O)[C@@H]1CCCN1C(=O)[C@@H](N)CCCNC(=N)N)C(=O)N[C@@H](CCCCN)C(=O)N[C@@H](Cc1c[nH]cn1)C(=O)N[C@@H](CCC(N)=O)C(=O)NCC(=O)N[C@@H](CC(C)C)C(=O)N1CCC[C@H]1C(=O)N[C@@H](CCC(N)=O)C(=O)N[C@@H](CCC(=O)O)C(=O)N[C@H](C(=O)N[C@@H](CC(C)C)C(=O)N[C@@H](CC(N)=O)C(=O)N[C@@H](CCC(=O)O)C(=O)N[C@@H](CC(N)=O)C(=O)N[C@@H](CC(C)C)C(=O)N[C@@H](CC(C)C)C(=O)N[C@@H](CCCNC(=N)N)C(=O)N[C@@H](Cc1ccccc1)C(=O)O)C(C)C | – | broth microdilution | USA300 LAC | – | – | 37 °C | > 100 µM
CC(C)C[C@H](NC(=O)CN)C(=O)N[C@@H](Cc1ccccc1)C(=O)N[C@@H](CC(=O)O)C(=O)N[C@@H](CC(C)C)C(=O)N[C@@H](CC(C)C)C(=O)N[C@@H](CCCCN)C(=O)N[C@@H](CCCCN)C(=O)N[C@@H](CC(C)C)C(=O)N[C@@H](CC(C)C)C(=O)N[C@@H](CCCCN)C(=O)N[C@@H](CC(C)C)C(=O)N[C@@H](CC(C)C)C(=O)N[C@@H](CCCCN)C(N)=O | – | – | SH1000 GFP-expressing | nutrient broth | 20 h | 37 °C | 100 µM
CC(C)[C@H](NC(=O)[C@H](CCCCN)NC(=O)CNC(=O)CNC(=O)[C@H](CCC(N)=O)NC(=O)[C@H](CCCCN)NC(=O)CNC(=O)[C@H](CCCNC(=N)N)NC(=O)CNC(=O)[C@@H](N)CCCCN)C(=O)N[C@@H](CCCNC(=N)N)C(=O)N[C@@H](C)C(=O)N[C@@H](CCCCN)C(=O)N[C@@H](C)C(=O)N[C@@H](CCCCN)C(=O)N[C@H](C(=O)N[C@@H](CCCNC(=N)N)C(=O)N[C@@H](CO)C(=O)N[C@@H](CO)C(=O)O)[C@@H](C)O | – | broth microdilution | USA300 LAC | – | – | 37 °C | > 84 µM
CC[C@H](C)[C@H](NC(=O)[C@H](C)NC(=O)[C@@H](NC(=O)[C@H](C)NC(=O)CNC(=O)[C@H](CCSC)NC(=O)[C@H](CCC(N)=O)NC(=O)[C@H](CC(C)C)NC(=O)[C@H](CO)NC(=O)[C@@H](N)Cc1ccc(O)cc1)[C@@H](C)O)C(=O)N[C@@H](CCCCN)C(=O)N[C@@H](CCC(N)=O)C(=O)N[C@H](C(=O)N[C@@H](CCCCN)C(=O)N[C@@H](CCCCN)C(=O)N[C@@H](CC(C)C)C(=O)N[C@@H](Cc1ccccc1)C(=O)N[C@@H](CCCCN)C(=O)N[C@@H](CCCCN)C(=O)N[C@@H](CCCCN)C(=O)NCC(=O)NCC(N)=O)C(C)C | – | broth microdilution | ATCC 25923 | – | 24 h | 37 °C | 78 µM
CC[C@H](C)[C@H](NC(=O)[C@H](Cc1c[nH]cn1)NC(=O)[C@H](Cc1c[nH]cn1)NC(=O)[C@H](Cc1ccccc1)NC(=O)[C@@H](N)Cc1ccccc1)C(=O)N[C@@H](Cc1ccccc1)C(=O)N[C@@H](CCCNC(=N)N)C(=O)NCC(=O)N[C@@H](C)C(=O)N[C@H](C(=O)N[C@@H](Cc1c[nH]cn1)C(=O)N[C@H](C(=O)NCC(=O)N[C@@H](CCCCN)C(=O)N[C@H](C(=O)N[C@H](C(=O)N[C@@H](Cc1c[nH]cn1)C(=O)N[C@@H](CCCNC(=N)N)C(=O)N[C@@H](CC(C)C)C(=O)N[C@H](C(=O)N[C@H](C(=O)NCC(N)=O)[C@@H](C)O)C(C)C)[C@@H](C)CC)[C@@H](C)O)C(C)C)C(C)C | – | broth microdilution | ATCC 25923 | – | 18 h | 37 °C | 3.1 µg/mL
actinomycin Y4 | – | broth microdilution | ATCC 6538 | – | 16 to 48 h | – | > 9.32 µg/mL

For quick reference, copied from above:
Substance | effect on | method | strain | medium | time | temperature | MIC
CCCCCCCC1CC(=O)c2c(O)cc(O)cc2O1 (stereo not shown) | – | broth microdilution | MRSA NRS70 | – | – | – | 3.13 to 6.25 µg/mL
CC[C@H](C)[C@H](NC(=O)[C@H](CO)NC(=O)[C@H](CC(C)C)NC(=O)[C@H](Cc1ccccc1)NC(=O)CN)C(=O)N[C@@H](CC(C)C)C(=O)N[C@@H](CCCCN)C(=O)N[C@@H](CCCCN)C(=O)N[C@H](C(=O)N[C@@H](CC(C)C)C(=O)N1CCC[C@H]1C(=O)N[C@@H](CCCCN)C(=O)N[C@H](C(=O)N[C@@H](CCSC)C(=O)N[C@@H](C)C(=O)N[C@@H](Cc1c[nH]cn1)C(=O)N[C@@H](CCSC)C(=O)N[C@@H](CCCCN)C(N)=O)C(C)C)C(C)C | – | broth microdilution | USA300 LAC | – | – | 37 °C | 12.5 to 25 µM
